Experimental data gathered from unrelated publications.
Each line is one published result; not all experiments were run side by side. ± marks the error that the study gave.
Cell line: HCT-116

COC(=O)N[C@H]1CC[C@@H](Nc2cc(NCc3ccccc3F)n3ncc(C(C)C)c3n2)CC1: “G2/M phase cells” 34% (1 µM, 24 h).
C=CCSc1nc(N)c2c(F)c(C#N)c(F)c(Cl)c2n1: “cells in G2/M phase” 31.1% (DAPI staining imaging; 1.02 µM, 24 h).
The IC75 of Cc1ccc(C(C)C)cc1.[Cl][Au].[Cl][Ru][Cl].c1ccc(P(CP(c2ccccc2)c2ccccc2)c2ccccc2)cc1 is reported as 9.9 ± 0.2 µM (cell growth, trypan blue exclusion; 48 h, DMSO 1%).
CSc1nc(Nc2ccc(/C(C)=N/NC(=O)c3ccc([N+](=O)[O-])cc3[N+](=O)[O-])cc2)c(C#N)c(-c2ccccc2)n1 has a necrotic cells of 0.19% (annexin V-FITC/PI flow cytometry; 1.14 µM, 24 h).
O=C1Nc2ccccc2/C1=N\Nc1nnc2n1N=C(c1ccc(Cl)cc1)CS2 has an inhibition of 17% (cell growth or viability, SRB; 10 µM).
The GI50 of CC(C)C1=C(O)C(=O)C2=C(C1=O)[C@H](OC=O)[C@@H](O)[C@H]1C(C)(C)CCC[C@]21C is reported as 7.9 µM (cell growth or viability, SRB; 48 h).
The selectivity index of CCOC(=O)c1ccc(-n2cc(Cn3c(=O)c(Cc4ccccc4)nc4ccccc43)nn2)cc1 is reported as 0.423 (MTT; relative to: HCT-116 over normal colonocytes).
With O=C(COc1ccccc1/C=N/Nc1nc(-c2ccc(Cl)cc2)cs1)N1CCN(C(=O)COc2ccccc2/C=N/Nc2nc(-c3ccc(Cl)cc3)cs2)CC1 the inhibition was 63.6% (cell growth or viability, SRB; 100 µM, 48 h).
For COc1cc(CNC(=O)C[C@H](C)CCC=C(C)C)ccc1OCc1cn(-c2cccc([N+](=O)[O-])c2)nn1, the growth percent was 18.6% (SRB; 10 µM, 48 h).
CC1CCCN(CCCNC(=O)C2=Cc3sc4c(c3CS2)CCCC4)C1 (stereo not drawn) gave an esterified cholesterol of 4.7 fold (20 µM, 48 h; relative to: vehicle).
The growth percent of COc1cc(CNC(=O)C[C@H](C)CCC=C(C)C)ccc1OCc1cn(-c2cccc(C(F)(F)F)c2)nn1 is reported as 12.5% (SRB; 10 µM, 48 h).
COc1ccc(NC(=O)N/N=C2\CC3(CCN(C)CC3)Oc3ccccc32)cc1: “cell cycle distribution” 9.51% (PI staining, flow cytometry; concentration not given, %G2/M).
COc1cc(CNC(=O)C[C@H](C)CCC=C(C)C)ccc1OCc1cn(-c2cccc(Cl)c2)nn1 gave a growth percent of 72.2% (SRB; 10 µM, 48 h).
For Cc1ccc(C(=O)N(Cc2ccc(C(F)(F)F)cc2)C2CC2)c(O)c1O, cell migration read “decreased” (wound healing; 20 µM, 24 and 48 h).
Under “cells in S phase”, COCCSc1nc(N)c2c(F)c(C#N)c(F)c(Cl)c2n1 is recorded as 7.55% (DAPI staining imaging; 1.02 µM, 24 h).
CO[C@H]1N(OC)c2ccccc2[C@@]12CN=C(Nc1cc(C(F)(F)F)cc(C(F)(F)F)c1)S2 (relative stereo) — result for “early apoptotic cells”: 23.4 ± 3.25% (annexin V/PI flow cytometry; 40 µM, 24 h).
Under “nuclear p65 level”, CCOP(=O)(OCC)OCCCCOC(=O)C(C)c1ccc(CC(C)C)cc1 (stereo not drawn) is recorded as “inhibited” (western blot; concentration not given).
With CC(C)(C)CC(C)(C)Nc1c(-c2ccc3c(c2)OCO3)nc2cnccn12 the cell migration was 34% (scratch; 25 µM, 24 h; relative to: untreated).
For CCC(=C(c1ccc(Cl)cc1)c1ccc(OCCCN(C)C)cc1)c1ccc(OC)cc1, the GI50 was 0.86 µM (cell growth or viability, SRB).
The inhibition of CC(=O)OCC1=CCC2[C@]3(C)COC(c4ccccc4)O[C@@H]3CC[C@@]2(C)[C@@H]1/C=C/C1=CCOC1=O (stereo partly drawn) is reported as 39.9% (cell growth or viability, MTT; 20 µM, 48 h).
O=C(CSc1nc2ccccc2s1)Nc1nonc1[N+](=O)[O-] has a GI50 of 14.7 µM (cell growth or viability, ATP luminescence).
For O=C(Cn1c(=O)c(Cc2ccccc2)nc2ccccc21)NN1C(=O)c2ccccc2C1=O, the mRNA level was 0.561 ± 0.032 fold (qRT-PCR, measured: BCL-2; concentration not given, 72 h; relative to: untreated).
For Cc1nc2ccc(Br)cc2c(=O)n1N, the viability was 48.2% (cell growth or viability, LDH; 200 µg/mL, 24 h).
The mRNA level of O=C(Cn1c(=O)c(Cc2ccccc2)nc2ccccc21)OCCNCCO is reported as 0.213 ± 0.012 fold (qRT-PCR, measured: BCL-2; concentration not given, 72 h; relative to: untreated).
C[C@]1(CO)C2CC[C@@]3(CO3)[C@@H](/C=C/C3=CCOC3=O)[C@]2(C)CC[C@H]1O (stereo partly drawn) gave an inhibition of 0% (cell growth or viability, MTT; 20 µM, 48 h).
With N=C(N)NCCC[C@@H](N)C(=O)N[C@@H](CCCNC(=N)N)C(=O)N[C@@H](Cc1c(F)c(F)c(F)c(F)c1F)C(=O)N[C@@H](CCCNC(=N)N)C(=O)N[C@@H]1CSCc2ccccc2CSC[C@@H](C(=O)N[C@H](CCCNC(=N)N)C(=O)N[C@@H](CC2CCCCC2)C(=O)N[C@@H](CCCNC(=N)N)C(=O)N2Cc3ccccc3C2C(N)=O)NC(=O)[C@H](Cc2cccc3ccccc23)NC(=O)[C@H](Cc2ccc(O)cc2)NC1=O (stereo partly drawn) the EC50 was 11.2 ± 1.2 µM.
COC(=O)CCNC(=O)CNC(=O)CCn1nc(Cc2ccccc2)c2ccccc2c1=O — result for “late apoptotic cells”: 7.67% (0.32 µM, 48 h).
With [Cl][Au]1[P](c2ccccc2)(c2ccccc2)C[P](c2ccccc2)(c2ccccc2)[Au]([Cl])[P](c2ccccc2)(c2ccccc2)C[P]1(c1ccccc1)c1ccccc1 the IC90 was 2.7 µM (cell growth or viability, trypan blue; 48 h).
With CC/C=C\C/C=C\C/C=C\C/C=C\C/C=C\C/C=C\CCC(=O)Nc1ccn(C2OC(CO)C(O)C2(F)F)c(=O)n1 (stereo not drawn) the TGI was 15.3 µM (NCI60 screen).
With [O-][n+]1nc(NCCNc2nc3ccccc3[n+]([O-])n2)nc2ccccc21 the ROS level was 1.3 fold (CM-H2DCFDA flow cytometry; concentration not given; relative to: control medium).
For NS(=O)(=O)c1ccc(-n2cc(Cn3c(=O)c(Cc4ccccc4)nc4ccccc43)nn2)cc1, the mRNA level was 3.56 ± 0.042 fold (qRT-PCR, measured: BAX; concentration not given, 72 h; relative to: untreated).
COc1cc(CNC(=O)C[C@H](C)CCC=C(C)C)ccc1OCc1cn(-c2ccc(Cl)cc2Cl)nn1 gave a growth percent of 53.1% (SRB; 10 µM, 48 h).
The inhibition of Cc1ccc(CNC(=O)[C@H](CCc2ccccc2)NC(=O)[C@H](CC(=O)NCC(C)(C)C)NC(=O)CCc2cccc(F)c2)cc1 is reported as roughly 20% (bulk protein turnover; 3 µM).
N#Cc1c(F)c(F)c2nc(SCc3ccc4ccccc4c3)nc(N)c2c1F — result for “cells in S phase”: 11.1% (DAPI staining imaging; 2.56 µM, 24 h).
For COc1cc(CNC(=O)C[C@H](C)CCC=C(C)C)ccc1OCc1cn(-c2ccccc2Cl)nn1, the growth percent was 49.7% (SRB; 10 µM, 48 h).
For CCCc1c(O)c(O)cc(C(=O)O)c1COC1OC(CO)C(O)C(O)C1O (stereo not drawn), mRNA level read “no effect” (Wnt/β-catenin signalling, RT-qPCR, measured: B9L; 25 µM; relative to: HPRT).

Excerpt of the above:
O=C(CSc1nc2ccccc2s1)Nc1nonc1[N+](=O)[O-] has a GI50 of 14.7 µM (cell growth or viability, ATP luminescence).
For O=C(Cn1c(=O)c(Cc2ccccc2)nc2ccccc21)NN1C(=O)c2ccccc2C1=O, the mRNA level was 0.561 ± 0.032 fold (qRT-PCR, measured: BCL-2; concentration not given, 72 h; relative to: untreated).
For Cc1nc2ccc(Br)cc2c(=O)n1N, the viability was 48.2% (cell growth or viability, LDH; 200 µg/mL, 24 h).
